Measured values of several laboratories.
Numbered parts are unrelated; each lists some results of a single study.

Set 1
Target: RNA binding protein fox-1 homolog 2, RRM domain, GST-SBP tag (RBFOX2, Homo sapiens, UniProt O43251-10, residues 100-194)
Technique: RNA Bind-n-Seq
Molecule type: RNA
Sample: in vitro
Concentration: 365 nM
Setting: natural RNA segment, single round, ends assumed
Reference: no-protein control
Reading: higher = stronger binding
Target sequence (chain): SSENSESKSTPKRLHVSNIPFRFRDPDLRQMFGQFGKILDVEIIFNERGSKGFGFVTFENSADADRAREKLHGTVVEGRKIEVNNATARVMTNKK
Under “RBNS enrichment (R)”, `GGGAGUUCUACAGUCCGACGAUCCCCACACGCCUCACCUCGGUGAGUGGGCAGAGCUGAGCCGCACUGUGUGCCUGGGAGCAGGUUACAACUCUGGUUUGACUUUCAUUUUGUUGAGAAGCUUCUGUUUUAAGUGGAAUUCUCGGGUGCCAA` is recorded as 0.488.
`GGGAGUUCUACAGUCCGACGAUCUCUACAAUAUUAAAGAUCUAAAUACAAAGGAUAUAAUACAGUCUUGAAUCUAAAGUAAUUUGCUAACUAUUUUGAUUCUUCAGAGAACUACUAAUAAAAAUCUAAAAGGUUGGAAUUCUCGGGUGCCAA` — result for “RBNS enrichment (R)”: 0.387.
`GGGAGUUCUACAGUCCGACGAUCCUUCUAGAGCUGAGAAGCAGGGUCAAAGCACAAUACUGGGCAAUUCAGAGCAUGGUUAGAAGAGGAAAGGGGAGUCUCAAAGCUGGAGAGUUUACCAACAAAUAUUGACUUGGAAUUCUCGGGUGCCAA` — result for “RBNS enrichment (R)”: 9.37.
`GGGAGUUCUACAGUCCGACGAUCCACCCUGGCUGAAGUCAGCUUGACCUAGGUCUUGACCCUCAUCCAGCAAGGGACUCGACAGACCCAAGGGUCCCUGGAACGUAGGGAGGGGCUGGGGGUCAGUCCAGCCCUGGAAUUCUCGGGUGCCAA` — result for “RBNS enrichment (R)”: 0.291.
For `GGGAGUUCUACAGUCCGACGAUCUUGGAAGUGAGCAGGACAAAGACCAUGUUUUAGAGAUGUGAUAACUUCCUAGGACUAAGUUUACUAAACUACACUGAAGCUAUUAUACUUUCUAGAUCAGAAAAAUUAUAUGGAAUUCUCGGGUGCCAA`, “RBNS enrichment (R)” read 0.338.
Under “RBNS enrichment (R)”, `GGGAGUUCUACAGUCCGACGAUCACAUAUGUAAUAUUAAUAGUUAUUAUUUACUGGUGCAGAUGGUUGACAUUUUUCCCUAUUUUCCUCACUUUAUGGAAGAGUUAAAACAUUUCUAAACCAGAGGACAAAAGUGGAAUUCUCGGGUGCCAA` is recorded as 0.289.
`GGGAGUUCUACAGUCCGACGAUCAGUACUGCCUUGAAUUUUGGUUUAAAACCUCUCUAGUUUCAAUGACAAGUAACAACUCAAAUAAUUCCAUAUUGUUUGAGGAAGAGGCCAUAAUCCUUCUGAAUUGUUGGUGGAAUUCUCGGGUGCCAA`: “RBNS enrichment (R)” 1.1.
`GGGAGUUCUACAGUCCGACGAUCCCUGCCUCACCCUCCCAAGUAGCUGGGAUUACAGGUGCCCACCUCCACGCCCAGCUAAUUUUUGUAUUUUUAAUAGAGACCGGUUUUGCCAUGUUGGCCAGGCUGGUCUCUGGAAUUCUCGGGUGCCAA`: “RBNS enrichment (R)” 0.334.
`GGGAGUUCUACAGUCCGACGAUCCGUGCACCACCACCACCAGACUUUUUGUUUUGUUUCUUAAGUCAGAGUUUCUCUGUGUAGCUUUGGUUGUCCUGGAACUCACUCUGUAGACCAGGCCAGCCUUGAACUAAUGGAAUUCUCGGGUGCCAA` — result for “RBNS enrichment (R)”: 0.572.

Set 2
Target: Interferon regulatory factor 5, full length, phosphomimetic (IRF5, Homo sapiens, UniProt Q13568-2, residues 1-514, K96S/S451D/S453D/S456D/S462D)
Technique: protein-binding microarray
Molecule type: double-stranded DNA, one strand shown
Sample: in vitro
Concentration: 250 nM
Setting: 60-bp whole probe
With: salmon DNA 0.4 mg/ml
Reference: random background probes
Reading: higher = stronger binding
Shared flanks, not repeated: GCCTAGCAC … GTCTTGATTCGCTTGACGCTGCTG
`GACGGGTTCGGTCTCGGGACGTGCTAG` gave a log fluorescence of -0.0455 z-score.
For `GACGGACTGCTACTGCAGACGTGCTAG`, the log fluorescence was -0.697 z-score.
The log fluorescence of `AACGGTTTCGGGTTTCGGGACGTGCTA` is reported as 8.23 z-score.
The log fluorescence of `GACGGTTTCAACTATCGGGACGTGCTA` is reported as 2.49 z-score.
The log fluorescence of `TCAGGTCTCTTGTTCTCACTGTGCTAG` is reported as -0.0883 z-score.
The log fluorescence of `TTAGGACTGGGAATCGGTTAGTGCTAG` is reported as 0.101 z-score.
The log fluorescence of `TTTGATTTCAGTCTCGATTAGTGCTAG` is reported as 3.91 z-score.
For `TTAGGTTTCGGCTATCGGTTAGTGCTA`, the log fluorescence was 9.22 z-score.
`GACGGCCTCCTTTTCCTGACGTGCTAG` gave a log fluorescence of -0.217 z-score.
`TTCGAATTCAGAATGGGAGAGTGCTAG` gave a log fluorescence of 0.219 z-score.
For `GACGGTTGCGGTATCGGGACGTGCTAG`, the log fluorescence was 1.14 z-score.
`TTAAGTTTCCTTCTCCTTTAGTGCTAG` gave a log fluorescence of 1.92 z-score.
`TAAGGTCTCCTACTGCTTTAGTGCTAG` gave a log fluorescence of -0.292 z-score.
For `TGAAGACTCTCTTGTCTGGATGTGCTA`, the log fluorescence was -0.279 z-score.
`TACGGACTGGACTATCGGGACGTGCTA` gave a log fluorescence of 0.856 z-score.
`TTAGATGTCAGTCTCGATTAGTGCTAG` gave a log fluorescence of 0.868 z-score.
With `GACGGACTGCTTTTCCTTACGTGCTAG` the log fluorescence was 0.0522 z-score.
The log fluorescence of `GACGGATTGCTTTTCCTGACGTGCTAG` is reported as 0.107 z-score.
For `GACGAGCTGAGTCTCGAGACGTGCTAG`, the log fluorescence was -0.521 z-score.
For `TTAGGACTGGATTTCGGTTAGTGCTAG`, the log fluorescence was 4.97 z-score.
`TTAGGTCTCCTTTTCCTTGAGTGCTAG` gave a log fluorescence of 0.197 z-score.
For `ATAAAAGAACTCCTGGGGGAGTGCTAG`, the log fluorescence was 0.462 z-score.
`TTAGGTATCGTACTGCTTTAGTGCTAG` gave a log fluorescence of 0.894 z-score.

Set 3
Target: Histone acetyltransferase KAT6A, winged helix 2, GST fusion (KAT6A, Homo sapiens, UniProt Q92794, residues 85-181)
Technique: protein binding microarray
Molecule type: double-stranded DNA, one strand shown
Sample: in vitro
Concentration: not given
Setting: 8-mer, flanks averaged, mean of 2 arrays, mostly near background
Reference: not given
Reading: higher = stronger binding
Target sequence (chain): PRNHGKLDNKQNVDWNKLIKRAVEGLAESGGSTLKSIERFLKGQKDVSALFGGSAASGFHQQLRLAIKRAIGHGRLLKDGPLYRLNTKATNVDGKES
With `ATCGCATA` the E-score was 0.0582.
With `CTCTAGAC` the E-score was -0.126.
The E-score of `AGCAAATG` is reported as 0.0316.
`AGTCATGC` gave an E-score of -0.203.
`ACAGGCGC` gave an E-score of 0.0612.
`ATGCAGGC` gave an E-score of 0.0367.
With `GACTCTGA` the E-score was -0.117.
The E-score of `AGCGCTCC` is reported as 0.0588.
`CTATTCTA` gave an E-score of 0.0274.
`CTCAAACA` gave an E-score of 0.182.
For `CATTTCCA`, the E-score was 0.0205.
With `AAGCTGCT` the E-score was -0.0467.
The E-score of `AGCCGCAT` is reported as 0.131.
`AGATAGCA` gave an E-score of 0.0563.
`ACGCTTGC` has an E-score of 0.0474.
With `CAGTGCAA` the E-score was 0.0429.
With `AGTCTGGG` the E-score was -0.0533.
`GCCCCAAA` gave an E-score of 0.0838.
`GATCTGCA` has an E-score of 0.00309.
For `TATCGAAA`, the E-score was 0.0369.
For `GCCTCTTA`, the E-score was 0.0955.
`ACGTCTAC` gave an E-score of -0.261.
The E-score of `ACACCACT` is reported as 0.153.
With `ACCGCCGC` the E-score was 0.145.

Set 4
Target: Centromere-binding protein 1, full length, N-terminal tag (CBF1, Saccharomyces cerevisiae, UniProt P17106, residues 1-351)
UniProt P17106, sequence (whole entry, looked up): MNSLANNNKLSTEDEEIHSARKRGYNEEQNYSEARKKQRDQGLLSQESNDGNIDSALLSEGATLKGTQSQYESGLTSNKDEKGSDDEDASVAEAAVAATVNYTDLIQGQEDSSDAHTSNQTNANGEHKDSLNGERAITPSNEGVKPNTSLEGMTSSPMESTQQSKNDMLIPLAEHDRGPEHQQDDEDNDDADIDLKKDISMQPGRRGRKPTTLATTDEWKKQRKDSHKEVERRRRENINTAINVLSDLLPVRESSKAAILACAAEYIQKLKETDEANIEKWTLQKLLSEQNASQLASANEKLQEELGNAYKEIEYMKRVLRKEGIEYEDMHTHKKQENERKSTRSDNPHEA
Technique: protein-binding microarray
Molecule type: double-stranded DNA, one strand shown
Sample: in vitro
Concentration: 0.8 µM
Setting: whole 60-bp probe, no competitor
Reading: higher = stronger binding
`CTAGATGAGCATGATCATGAGATTTAAACTTCTTTCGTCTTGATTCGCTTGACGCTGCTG` gave a fluorescence intensity of 729 a.u.
For `GAAGCATGTTCTCAGCACGTTTTGAAGTGGCTATAGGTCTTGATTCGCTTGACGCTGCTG`, the fluorescence intensity was 639 a.u.
For `CTAACACAAAGTAGTGATGACCCACTCAGGTGTTTCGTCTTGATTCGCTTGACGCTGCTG`, the fluorescence intensity was 539 a.u.
The fluorescence intensity of `GAAAACTTGAACGATTTCACCAGATGTTTGTACTAGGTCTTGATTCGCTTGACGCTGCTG` is reported as 528 a.u.
`GAATGAACGGTTGGTCAGGAGAACGAAGAAGTTTAGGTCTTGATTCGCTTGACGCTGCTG` has a fluorescence intensity of 559 a.u.
`CTACTTATTGTGAACATCATGACAAAACGAAATTTCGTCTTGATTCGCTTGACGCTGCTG` has a fluorescence intensity of 547 a.u.
For `CTATAGTATCCACTTCGTGTGACATTACTATAATTCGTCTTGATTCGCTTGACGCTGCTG`, the fluorescence intensity was 558 a.u.
For `CCTAACTACTATACTCACCCCGCATAGCTTCGTACAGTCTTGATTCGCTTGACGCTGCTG`, the fluorescence intensity was 507 a.u.
With `GAATTTTGAAAACATGATGATATACTAATAATTTAGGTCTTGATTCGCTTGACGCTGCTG` the fluorescence intensity was 557 a.u.
The fluorescence intensity of `GAATGCACAGTGACTCACGTTTTTTTATCAGTCTAGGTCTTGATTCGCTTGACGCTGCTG` is reported as 780 a.u.
The fluorescence intensity of `CTATGAATATACCGTCATGCCATTTGGCTTAGTTTCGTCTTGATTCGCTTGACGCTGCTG` is reported as 529 a.u.
`GAAGAACAAAAACAAAACGTGGGTAAAGAACAATAGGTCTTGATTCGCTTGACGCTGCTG` gave a fluorescence intensity of 591 a.u.
The fluorescence intensity of `GAACCAGATCTACAGCTGATGAAATGTGGCTGATAGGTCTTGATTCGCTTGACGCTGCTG` is reported as 516 a.u.
`GAATGCTGTTGGGAAAACGTGCCTTCTAATCTCTAGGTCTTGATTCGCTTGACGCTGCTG` gave a fluorescence intensity of 793 a.u.
`GAATGTAGGAAAATAAACGTGTTGCTCTGTCATTAGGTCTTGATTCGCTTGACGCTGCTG` gave a fluorescence intensity of 538 a.u.
For `GAATGCTGCCGCTTCAGCGTGAATGACGCAGGTTAGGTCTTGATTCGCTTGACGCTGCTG`, the fluorescence intensity was 513 a.u.
For `GAAAGCTTTATGAGTACCGTCACGTTTCCTGTTTAGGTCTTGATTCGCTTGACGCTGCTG`, the fluorescence intensity was 2140 a.u.
For `GAATAGTAATTTACACACGAGGTGAGGAATACGTAGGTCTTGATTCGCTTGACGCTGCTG`, the fluorescence intensity was 653 a.u.
`GAAGCCCCGTGATAAAACCTCACGTATGACACATAGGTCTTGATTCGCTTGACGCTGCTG` has a fluorescence intensity of 1090 a.u.
`CTACATACTTTCATTGTCGTGATTCTTTAGGCATTCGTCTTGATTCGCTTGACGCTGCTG` has a fluorescence intensity of 611 a.u.
For `CTAACCCTAGTTCATCAGGTTGAAGAAGTATTATTCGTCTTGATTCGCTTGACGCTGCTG`, the fluorescence intensity was 530 a.u.
For `GAAGCTTTTGTCCTACACGAGGAATGTATCAAATAGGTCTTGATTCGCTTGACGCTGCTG`, the fluorescence intensity was 593 a.u.
`CTAGTCCGGCATCACGTGGTTATGATGTAGTATTTCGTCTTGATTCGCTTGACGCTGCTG` has a fluorescence intensity of 10800 a.u.
`GAATAACCTAATAATTCCGTGATTTTGATATTTTAGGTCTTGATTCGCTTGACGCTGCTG` has a fluorescence intensity of 516 a.u.
`CTATGTAAGAACTGTCACGTAGTAACACAATCATTCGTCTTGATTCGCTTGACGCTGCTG` gave a fluorescence intensity of 608 a.u.
